Results from different studies.
Parts stem from different laboratories: compare values within a part only.

Series 1
Target: Histone acetyltransferase KAT6A, both winged helices, GST fusion (KAT6A, Homo sapiens, UniProt Q92794, residues 1-181)
Technique: protein binding microarray
Molecule type: double-stranded DNA, one strand shown
Medium: in vitro
Concentration: not given
Notes: 8-mer, flanks averaged, mean of 2 arrays, mostly near background
Relative to: not given
Direction: higher = stronger binding
Endpoint: E-score
Residues (chain): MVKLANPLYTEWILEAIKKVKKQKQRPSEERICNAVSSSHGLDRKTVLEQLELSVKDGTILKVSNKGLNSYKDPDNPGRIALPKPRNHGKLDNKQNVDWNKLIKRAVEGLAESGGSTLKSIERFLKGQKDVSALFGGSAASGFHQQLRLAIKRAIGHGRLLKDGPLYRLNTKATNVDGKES
AGCTTCAT: 0.115
ACCTCTTC: -0.0809
CGGCTTTA: 0.243
ATGCGTCC: 0.192
ACAGAGTA: -0.065
ATCACCTA: -0.258
AGAGGAGG: -0.241
CATGGATC: -0.0379
TCTTTGAA: -0.115
ATGTGTTC: -0.0173
ATTCGCAA: -0.0196
TCCTTACA: -0.018
CGTACGAC: 0.0003
ACGTACAA: -0.0284
GAGAGTGA: -0.181
AATTTGCG: 0.0403
GGTCCACA: -0.194
ATCCTTTC: 0.0116
AGCCACGG: 0.186
TACGTAGA: -0.023
GCGAGTCA: 0.094
AGAGGGAA: -0.239

Series 2
Target: Ras GTPase-activating protein-binding protein 1, full length (G3BP1, Homo sapiens, UniProt Q13283)
UniProt Q13283, sequence (whole entry, looked up): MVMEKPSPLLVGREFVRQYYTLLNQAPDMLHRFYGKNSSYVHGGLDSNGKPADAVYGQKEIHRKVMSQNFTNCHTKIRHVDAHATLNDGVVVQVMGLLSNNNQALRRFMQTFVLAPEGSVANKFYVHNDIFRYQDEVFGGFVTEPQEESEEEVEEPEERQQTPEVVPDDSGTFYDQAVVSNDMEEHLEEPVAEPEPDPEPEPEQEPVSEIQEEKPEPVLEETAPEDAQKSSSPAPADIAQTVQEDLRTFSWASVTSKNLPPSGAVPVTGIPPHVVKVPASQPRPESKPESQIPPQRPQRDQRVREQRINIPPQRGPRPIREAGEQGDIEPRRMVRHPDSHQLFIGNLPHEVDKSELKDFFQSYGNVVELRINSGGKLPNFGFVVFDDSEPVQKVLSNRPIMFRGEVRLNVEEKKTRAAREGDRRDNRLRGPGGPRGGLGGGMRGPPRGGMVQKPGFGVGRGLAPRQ
Technique: RNA Bind-n-Seq
Molecule type: RNA
Medium: in vitro
Concentration: 200 nM
Notes: whole 134-nt RNA, ends assumed
With: 150 mM KCl
Relative to: input library
Direction: higher = stronger binding
Endpoint: log2 enrichment
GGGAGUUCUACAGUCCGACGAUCUCCUGUGCUACACAUCGUAUGUACCGAAUCGGAAAAAAGGGGAAAAAAGGGGAAAAAAGGAAAGUAUUAUGUUACGCCGUUCGGAUCUGCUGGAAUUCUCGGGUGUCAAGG: -0.515
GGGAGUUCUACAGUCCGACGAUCCAAGUCCUGUGCUACACAUCGUAUGUACCGAAUCGGGAGGGAAAAAAAGGGUGGGAAAGUAUUAUGUUACGCCGUUCGGAUCUGCACUUCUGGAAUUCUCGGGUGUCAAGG: 0.383
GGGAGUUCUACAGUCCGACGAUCUGGCCCUGGUGGCGUGCGGGGAGGAAGAGGUGGCCUCAUGGAUCGUGGUGGUCCCGGUGGAAUGUUCAGAGGUGGCCGUGGUGGAGACAGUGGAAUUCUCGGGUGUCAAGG: 0.928
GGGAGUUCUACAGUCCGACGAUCUCCAGUCUAGCUUUGGAGAAGCGCCAACCUGCUCACUGCCGCCGACCAGACUGCAUGUUUGGUUGUACUUGUUUGAAAAGAAAAGUUGUAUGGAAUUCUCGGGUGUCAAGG: -1.11
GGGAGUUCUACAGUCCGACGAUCACCAUGCAGGUGGGCAUCUUUGGGAAGUGGGGCAAGGGGGGGAUAGGGAGGGGGGUAACCCUUUGGGAACAGGUGGUCCCAGGUCGUUUCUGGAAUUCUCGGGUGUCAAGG: 1.31
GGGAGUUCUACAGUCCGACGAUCCACAGACAACACGCACCCACACAGACACAGAGGGAAGGGUUUGGGAUGGGGACAGGGUGCACAGCAGGGCGGGGUAGGACCCCAGCCCCUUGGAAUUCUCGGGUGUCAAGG: 1.99
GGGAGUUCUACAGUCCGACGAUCUGUGCUACACAUCGUAUGUACCGAAUCGGGGAAAAAAAGGGGAAAAAAAGGGAAAAAAAGGGGAAAGUAUUAUGUUACGCCGUUCGGAUCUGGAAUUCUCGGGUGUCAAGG: -0.418
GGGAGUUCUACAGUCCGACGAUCGCAGGAAGUAAGAACAAAUGGAAAUGCUUCGGAUAGUGGCAGGGGUGGGGGUUGCUAAGGAAAGGGUGGGAUGGGAGUGGGUAAAGAGUUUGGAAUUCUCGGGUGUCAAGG: 1.56
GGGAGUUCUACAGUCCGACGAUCUGGCCCUGGUGGGAUGCGGGGAGGAAGAGGUGGCCUCAUGGAUCGUGGUGGUCCCGGUGGAAUGUUCAGAGGUGGCCGUGGUGGAGACAGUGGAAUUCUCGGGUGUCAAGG: 0.554

Series 3
Target: Prothrombin, mature alpha-thrombin (F2, Homo sapiens, UniProt P00734)
Technique: aptamer microarray, sandwich
Molecule type: DNA with 2'F-ANA
Medium: in vitro
Concentration: 200 nM
Notes: whole 15-mer aptamer, many near background
With: Cy3 exosite-II aptamer, 400 nM
Direction: higher = stronger binding
Endpoint: mean fluorescence intensity
Oligonucleotide: GGTTGGTGTGGTTGG
2'F-ANA at 3 5 7 8 15: 168 a.u.
2'F-ANA at 1 3 7 10 12: 121 a.u.
2'F-ANA at 3 4 7 9 10 14 15: 215 a.u.
2'F-ANA at 1 2 4 5 6 9 11 12 15: 85.9 a.u.
2'F-ANA at 2 4 5 8 9 11 13 15: 54.3 a.u.
2'F-ANA at 1 5 6 7 11 12 14: 63.8 a.u.
2'F-ANA at 7 9 10 11 14 15: 113 a.u.
2'F-ANA at 1 2 3 4 5 6 8 12 14: 47.4 a.u.
2'F-ANA at 1 3 4 5 7 8 14 15: 45.1 a.u.
2'F-ANA at 6 8 9 11 13: 370 a.u.
2'F-ANA at 2 9 10 11 15: 118 a.u.
2'F-ANA at 4 5 8 9 10 11 12 13 14 15: 47 a.u.
2'F-ANA at 1 4 5 8 10 13 14: 58.4 a.u.
2'F-ANA at 2 3 7 8 12 15: 1210 a.u.
2'F-ANA at 1 2 4 5 7 11 13: 47.7 a.u.
2'F-ANA at 2 3 5 8 9 10 12 14: 54.2 a.u.
2'F-ANA at 4 5 7 13 14: 50.2 a.u.
2'F-ANA at 1 2 5 8 9 10 12 13 15: 70 a.u.
2'F-ANA at 1 3 5 8 9 10 15: 47.3 a.u.
2'F-ANA at 2 4 8 13: 287 a.u.
2'F-ANA at 1 5 6 7 9 10: 48.5 a.u.
2'F-ANA at 3 4 5 7 13 14: 51.9 a.u.
2'F-ANA at 1 2 4 5 10 12 13 15: 46 a.u.
2'F-ANA at 2 3 4 6 8 11 13 14 15: 213 a.u.

Further values, each from its own experiment
PhoQ, residues 284 288 289 292 302 303 TYGVAM  fold induction (PhoP, residues 12 14 15 18 19 TQAIL (Escherichia coli, UniProt P23836); Sort-seq, item: YFP reporter; E. coli; PhoQ-PhoP variant library, with: 10 µM Mg2+; relative to: high Mg2+ state, higher = stronger signaling): 4.53

For quick reference, copied from above (series 1):
ACCTCTTC: -0.0809
CGGCTTTA: 0.243
ATGCGTCC: 0.192
